# Measurements of several laboratories.
# Lines come from different studies, so protocols differ.
# PIK3CA E545K: Phosphatidylinositol 4,5-bisphosphate 3-kinase catalytic subunit alpha isoform (PIK3CA, Homo sapiens, UniProt P42336, E545K)
# PIK3CA C420R: Phosphatidylinositol 4,5-bisphosphate 3-kinase catalytic subunit alpha isoform (PIK3CA, Homo sapiens, UniProt P42336, C420R)
# PIK3CA H1047L: Phosphatidylinositol 4,5-bisphosphate 3-kinase catalytic subunit alpha isoform (PIK3CA, Homo sapiens, UniProt P42336, H1047L)
Structure (SMILES),target,read-out,technique,tested at,baseline,remaining binding
Cc1cnc2nc1Nc1cccc(c1)COC/C=C/COCc1cc(ccc1OCCN1CCOCC1)N2,PIK3CA E545K,binding,,0.1 µM,,74%
Cc1ccc(-c2c(/C=C(\C#N)C(=O)NC(C)C)n(CCCO)c3ncnc(N)c23)cc1,"PIK3CA (Homo sapiens, UniProt P42336, H1047Y)",cell-free assay,competition with immobilised ligand,1 µM,,100%
CCN1CCN(Cc2ccc(C(=O)Nc3ccc(C)c(NCc4cnc5[nH]ccc5c4OC)c3)cc2C(F)(F)F)CC1,PIK3CA C420R,binding,competition with immobilised ligand,1 µM,,68%
COc1c(Cl)cccc1Nc1c(-c2ccncc2C#C[C@@]2(C)CCCN2C(=O)/C=C/CN(C)C)[nH]c2c1C(=O)NCC2,PIK3CA C420R,binding,competition with immobilised ligand,3 µM,,86%
Nc1ncc2c(n1)-c1c([nH]c3ccc(C4=CCOCC4)cc13)CCC2,"PIK3CA (Homo sapiens, UniProt P42336, I800L)",binding,competition with immobilised ligand,1 µM,,100%
CC(=O)c1cnc(N)nc1N1CC[C@H]1c1nn2ccc(Cl)c2c(=O)n1-c1ccccc1,"PIK3CA (Homo sapiens, UniProt P42336, E542K)",binding,competition with immobilised ligand,10 µM,,83%
C=CC(=O)N1CCCC(n2c(=O)c3ncccc3n(Cc3ccc(Oc4ccccc4)cc3)c2=O)C1 (centres unmarked),PIK3CA E545K,cell-free assay,competition with immobilised ligand,1 µM,,68%
CC(C)=CC1OC(C)(C)C2C=C3C(=O)C(Cl)=CC(O)C3C3C(O)C4OC4C(=O)C132 (centres unmarked),PIK3CA H1047L,cell-free assay,competition with immobilised ligand,10 µM,,69%
CNC1C[S+]2CC[S+]3CC[S+](C1)[Ru-4]321([N]=C=S)[n]2c3ccc(OC)cc3c3c4c(c5cc(F)c[n+]1c5c32)C(=O)NC4=O (centres unmarked),"PIK3CA (Homo sapiens, UniProt P42336, Q546K)",,KinomeScan,0.1 µM,untreated,97%
C=CC(=O)N1CCc2ccc(-n3c(=O)ccc4cnc5ccc(-c6cnn(C)c6)cc5c43)cc21,PIK3CA C420R,,KINOMEscan,1 µM,DMSO control,64%
CNC(=O)C1CCN(c2cc(C)c(F)cc2NC(=O)c2ccc(-c3cc(O)ccc3C)c(C)c2)CC1,PIK3CA H1047L,binding,competition with immobilised ligand,1 µM,,100%
